Measured values from different studies.
Numbered parts are unrelated; each lists some results of a single study.

Study 1
Target: Interferon regulatory factor 3, full length, phosphomimetic (IRF3, Homo sapiens, UniProt Q14653, residues 1-427, S386D/S396D/S398D/S402D/T404D/S405D)
Technique: protein-binding microarray
Form: double-stranded DNA, one strand shown
Matrix: in vitro
Concentration: 2540 nM top
Notes: 60-bp whole probe
Added: salmon DNA 0.4 mg/ml
Reference: random background probes
Reading: higher = stronger binding
Constant ends, left off below: GCCTAGCAC … GTCTTGATTCGCTTGACGCTGCTG
Target sequence (chain): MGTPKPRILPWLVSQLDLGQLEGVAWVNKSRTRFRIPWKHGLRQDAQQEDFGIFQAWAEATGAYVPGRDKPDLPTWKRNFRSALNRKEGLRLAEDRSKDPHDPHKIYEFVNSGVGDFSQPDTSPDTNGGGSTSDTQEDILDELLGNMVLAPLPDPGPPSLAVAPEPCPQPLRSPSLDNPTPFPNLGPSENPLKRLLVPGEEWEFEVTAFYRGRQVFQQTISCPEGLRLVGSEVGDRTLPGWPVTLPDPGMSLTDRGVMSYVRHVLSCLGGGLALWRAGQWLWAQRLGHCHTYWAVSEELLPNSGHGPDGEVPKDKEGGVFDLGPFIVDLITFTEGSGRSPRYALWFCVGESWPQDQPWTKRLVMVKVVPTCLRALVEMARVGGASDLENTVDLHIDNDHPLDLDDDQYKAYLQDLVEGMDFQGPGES
Oligonucleotide | fitted relative affinity [z-score]
TTAGATTTCAGTTTCGGTTAGTGCTAG | 6.55
GACGATATCGGGACTGGAAACGTGCTA | 0.326
GTCGGACTGCTTTTCCTGACGTGCTAG | 0.524
TTAGATCTCAGCATCGATTAGTGCTAG | -0.219
GACGATATCAGTTTCAAGACGTGCTAG | 2.18
TTAGGACTAGGGTATCGGTTAGTGCTA | 0.136
TCAGTTTCCAAATTGTCACTGTGCTAG | 8.9
GACGGTTTCCTTTCCCTGATGTGCTAG | 9.75
GTCGATTTCGGGACTGGAGACGTGCTA | 2.97
GTCGAACTGGGGTTTCGAGACGTGCTA | 0.653
GACGGACTGGGGACTGGGCACGTGCTA | -1.09
TTAGATTTCAGACTCGATTAGTGCTAG | 1.57
CTGACATGTAAATGTGACATGTGCTAG | 0.149
TTAGAACTGAGTATCGATAAGTGCTAG | 0.0832
TGAGGTTTCGGTATCGGTTAGTGCTAG | 8.67
TCATTTCTCAGTTTATTACTGTGCTAG | 2.62
GACGATTTCAGTCTTGAGACGTGCTAG | 2.47
GACGGTCCCGGACTGGGGACGTGCTAG | -0.441
GACGAAGTGAGACTGGAGACGTGCTAG | -0.506
TACGGTTTCCTTTTCCTGACGTGCTAG | 10.5
TCAAATTTACTTTGGTTACTGTGCTAG | 0.0206
TTAGGACTGAGTATCGGTTAGTGCTAG | 0.821
GACGGTCTCCGTATCCTGACGTGCTAG | 1.84
GACGGTATCGGGACTTGGGACGTGCTA | 1.43
GACGGTATCCTTTTCCTGAGGTGCTAG | 7.34

Study 2
Target: Ras GTPase-activating protein-binding protein 1, C-terminal RGG region (G3BP1, Homo sapiens, UniProt Q13283)
Sequence of UniProt Q13283 (whole entry, looked up): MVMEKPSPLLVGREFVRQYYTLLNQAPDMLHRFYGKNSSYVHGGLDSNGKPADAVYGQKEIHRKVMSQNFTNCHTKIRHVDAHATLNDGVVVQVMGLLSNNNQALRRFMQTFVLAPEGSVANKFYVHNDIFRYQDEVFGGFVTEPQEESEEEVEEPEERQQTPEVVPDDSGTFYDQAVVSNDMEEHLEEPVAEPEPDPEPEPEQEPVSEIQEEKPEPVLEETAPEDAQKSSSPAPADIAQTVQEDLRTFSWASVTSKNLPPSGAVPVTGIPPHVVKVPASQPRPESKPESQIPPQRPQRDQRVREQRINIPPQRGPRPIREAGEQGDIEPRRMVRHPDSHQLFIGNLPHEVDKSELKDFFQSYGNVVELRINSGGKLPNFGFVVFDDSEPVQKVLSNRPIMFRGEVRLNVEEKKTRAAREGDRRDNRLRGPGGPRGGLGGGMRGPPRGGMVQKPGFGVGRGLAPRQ
Technique: RNA Bind-n-Seq
Form: RNA
Matrix: in vitro
Concentration: 1 µM
Notes: whole 134-nt RNA, ends assumed
Added: 150 mM KCl
Reference: input library
Reading: higher = stronger binding
Oligonucleotide | log2 enrichment
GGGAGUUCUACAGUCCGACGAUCUCUCAGCAGGCGCAUCUACACUAGUGACCUGAGGAGAGAAACCCUAACCCCACAAUGGCUGCAUCUUCUCUGAAGACGAGACUGAUGCUCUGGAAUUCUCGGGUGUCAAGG | -0.814
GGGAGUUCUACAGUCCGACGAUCCUGUGCUACACAUCGUAUGUACCGAAUCGGUUUUUUUGGGUUUUUUUGGGGUUUUUUUGGGGAAAGUAUUAUGUUACGCCGUUCGGAUCUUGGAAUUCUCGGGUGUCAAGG | -1
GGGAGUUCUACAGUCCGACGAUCCUCAAGUCCUGUGCUACACAUCGUAUGUACCGAAUCGGAAAGGUGGUUUUUGGAAAGUAUUAUGUUACGCCGUUCGGAUCUGCACUUCCAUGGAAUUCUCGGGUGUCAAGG | -1.08
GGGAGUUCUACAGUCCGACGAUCGUCCUGUGCUACACAUCGUAUGUACCGAAUCGGGUUUUUGGGAAAGGGAAAAAAAGGGAAAGUAUUAUGUUACGCCGUUCGGAUCUGCACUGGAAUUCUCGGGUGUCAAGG | -0.821
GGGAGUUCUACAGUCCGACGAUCUAACUUUAGAGGAGGAUCUGAUGGAUAUGGCAGUGGACGUGGAUUUGGGGAUGGCUAUAAUGGGUAAGGAGGAGGACCUGGAGGUGGCAAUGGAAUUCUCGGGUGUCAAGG | -0.681
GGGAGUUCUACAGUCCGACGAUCUGCUGGCAGCCAAGCAGCAGCAGGAGAUGCUGGCAGCCAAGCGGCAGCAGGAGCUGGAGCAGCAGCGGCAGCGGGAGCAGCAGCGGCAGGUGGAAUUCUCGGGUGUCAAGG | -1.21
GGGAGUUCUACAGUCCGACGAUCAUGGAUGACCCCUCUGUGGGCCCCAAGAUCCCCCAGGCUUUGGAGAAGAUCCUGCAGCUGAAGGAGAGCCGCCAGGAAGAGAUGAAUUCUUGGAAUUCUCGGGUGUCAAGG | -1.92
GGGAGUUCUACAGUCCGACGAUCUAACUUUAGAGGAGGAUCUGAUGGAUAUGGCAGUGAACGUGGAUUUGGGGAUGGCUAUAAUGGGUAUGGAGGAGGACCUGGAGGUGGCAAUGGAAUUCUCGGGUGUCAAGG | -0.779
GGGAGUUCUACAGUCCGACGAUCUGGCCCUGGUGGCAUGUGGGGAGGAAGAGGUGGCCUCAUGGAUCGUGGUGGUCCCGGUGGAAUGUUCAGAGGUGGCCGUGGUGGAGACAGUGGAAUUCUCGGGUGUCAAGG | 1.86
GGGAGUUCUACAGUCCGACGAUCUUCCGGAAGAAGAAGCUCCGAUUUGGCCGGAGCCGGAUCCACGAGUGGGGUCUGUUUGCCAUGGAACCCAUUGCUGCUGACGAGAUGGUCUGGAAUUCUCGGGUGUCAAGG | -1.47

Study 3
Target: TAR DNA-binding protein 43, full length, His tag (TARDBP, Homo sapiens, UniProt Q13148, residues 1-414)
Technique: RNA Bind-n-Seq
Form: RNA
Matrix: in vitro
Concentration: 20 nM
Notes: 6-mer, flanks averaged, single round
Added: 150 mM LiCl
Reference: input library
Reading: higher = stronger binding
Oligonucleotide | 6-mer enrichment (R)
CCGCGC | 0.966
UCGGUA | 0.943
GAUUAC | 0.82
UUUUCU | 1.28
GUACCC | 0.99
AGUUCC | 0.883
UCAAGC | 0.823
GGGGGA | 1.45
ACUAAC | 0.828
AGGCUU | 0.885
AAAAUA | 0.976
CGUCAG | 0.886
ACACAA | 0.871
AUUUGU | 1.22
GGUCCG | 0.963
GUACGU | 1.02
GGGUCU | 1
GGGAAC | 0.992
UUCCCG | 0.935
ACCAAU | 0.898
AGCUCC | 0.973
GGCCGU | 1
GAGUCA | 0.888
CUCGAU | 0.801
GAAGUA | 0.974

Study 4
Target: Sal-like protein 4, full length isoform A (SALL4, Homo sapiens, UniProt Q9UJQ4, residues 1-1053)
Sequence of UniProt Q9UJQ4 (whole entry, looked up): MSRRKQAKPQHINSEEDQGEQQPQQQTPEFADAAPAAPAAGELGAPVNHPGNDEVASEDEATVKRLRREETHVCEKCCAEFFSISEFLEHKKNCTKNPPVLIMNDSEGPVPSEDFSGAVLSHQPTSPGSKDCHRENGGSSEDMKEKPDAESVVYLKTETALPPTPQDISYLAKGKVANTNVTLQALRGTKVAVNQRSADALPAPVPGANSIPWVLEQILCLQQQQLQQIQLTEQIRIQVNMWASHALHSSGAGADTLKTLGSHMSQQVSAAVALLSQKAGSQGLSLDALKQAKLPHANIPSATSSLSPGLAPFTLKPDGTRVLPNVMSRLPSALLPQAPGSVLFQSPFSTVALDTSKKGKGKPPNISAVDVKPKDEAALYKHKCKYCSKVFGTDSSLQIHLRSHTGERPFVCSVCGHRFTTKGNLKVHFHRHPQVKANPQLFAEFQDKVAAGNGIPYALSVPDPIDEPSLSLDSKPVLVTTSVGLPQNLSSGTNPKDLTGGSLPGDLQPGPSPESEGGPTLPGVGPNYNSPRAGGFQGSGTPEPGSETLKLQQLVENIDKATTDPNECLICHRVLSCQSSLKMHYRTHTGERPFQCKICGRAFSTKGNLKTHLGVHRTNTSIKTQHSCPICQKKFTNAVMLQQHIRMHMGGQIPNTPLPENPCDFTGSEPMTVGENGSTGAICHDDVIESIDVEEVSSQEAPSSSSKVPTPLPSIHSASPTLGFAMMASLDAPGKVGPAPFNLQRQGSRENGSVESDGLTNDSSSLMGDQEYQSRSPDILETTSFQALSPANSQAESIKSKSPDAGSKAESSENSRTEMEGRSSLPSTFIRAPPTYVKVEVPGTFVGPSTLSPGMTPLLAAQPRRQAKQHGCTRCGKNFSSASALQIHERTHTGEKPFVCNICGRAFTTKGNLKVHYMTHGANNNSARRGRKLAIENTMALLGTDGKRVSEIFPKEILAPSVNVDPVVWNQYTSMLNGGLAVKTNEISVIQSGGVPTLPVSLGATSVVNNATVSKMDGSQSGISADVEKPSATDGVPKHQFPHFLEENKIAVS
Technique: universal PBM
Form: double-stranded DNA, one strand shown
Matrix: in vitro
Concentration: 600 nM
Notes: 8-mer, flanks averaged, mean of replicates
Reading: higher = stronger binding
Oligonucleotide | E-score
AGAGATAC | 0.0696
GATCACTA | -0.0103
CAATCGTA | 0.247
CACGAAAC | -0.0675
AACGCGAG | -0.0468
GCGTCCTA | -0.307
AGTCCCTC | -0.131
AAGAGTGT | 0.0364
ATAACCTC | 0.241
GTCTTATA | 0.227
GTAGCGTA | 0.00482
ATCGCGGA | -0.115
CACCAGGG | -0.34
AGTACTCG | 0.0498
ACGTCAAG | -0.022
GAATAGGA | 0.197
GCCGAACA | -0.0914
ACCATCGG | -0.266
GCTGCCAC | -0.217
GCTGTGGA | -0.0615
CATCGGAC | -0.281
GGTACCTA | -0.144
AAGAACCT | 0.0345
ACGGGAGG | -0.122
CCCGTCAG | -0.324

Some of these lines once more (study 2):
Oligonucleotide | log2 enrichment
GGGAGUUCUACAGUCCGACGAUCUAACUUUAGAGGAGGAUCUGAUGGAUAUGGCAGUGGACGUGGAUUUGGGGAUGGCUAUAAUGGGUAAGGAGGAGGACCUGGAGGUGGCAAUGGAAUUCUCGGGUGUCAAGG | -0.681
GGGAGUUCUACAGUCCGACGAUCUGGCCCUGGUGGCAUGUGGGGAGGAAGAGGUGGCCUCAUGGAUCGUGGUGGUCCCGGUGGAAUGUUCAGAGGUGGCCGUGGUGGAGACAGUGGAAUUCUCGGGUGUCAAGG | 1.86
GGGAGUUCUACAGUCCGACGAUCUUCCGGAAGAAGAAGCUCCGAUUUGGCCGGAGCCGGAUCCACGAGUGGGGUCUGUUUGCCAUGGAACCCAUUGCUGCUGACGAGAUGGUCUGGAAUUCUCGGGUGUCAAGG | -1.47
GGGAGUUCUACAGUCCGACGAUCCUCAAGUCCUGUGCUACACAUCGUAUGUACCGAAUCGGAAAGGUGGUUUUUGGAAAGUAUUAUGUUACGCCGUUCGGAUCUGCACUUCCAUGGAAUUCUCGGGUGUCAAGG | -1.08
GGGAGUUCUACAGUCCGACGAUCUGCUGGCAGCCAAGCAGCAGCAGGAGAUGCUGGCAGCCAAGCGGCAGCAGGAGCUGGAGCAGCAGCGGCAGCGGGAGCAGCAGCGGCAGGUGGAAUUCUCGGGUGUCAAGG | -1.21
